# Assay results gathered from unrelated publications.
# Protocols differ between the studies behind these lines. Numbers after ± are the reported error.
# DRD1: D(1A) dopamine receptor (DRD1, Homo sapiens, UniProt P21728)
# Sequence of UniProt P21728 (whole entry, looked up): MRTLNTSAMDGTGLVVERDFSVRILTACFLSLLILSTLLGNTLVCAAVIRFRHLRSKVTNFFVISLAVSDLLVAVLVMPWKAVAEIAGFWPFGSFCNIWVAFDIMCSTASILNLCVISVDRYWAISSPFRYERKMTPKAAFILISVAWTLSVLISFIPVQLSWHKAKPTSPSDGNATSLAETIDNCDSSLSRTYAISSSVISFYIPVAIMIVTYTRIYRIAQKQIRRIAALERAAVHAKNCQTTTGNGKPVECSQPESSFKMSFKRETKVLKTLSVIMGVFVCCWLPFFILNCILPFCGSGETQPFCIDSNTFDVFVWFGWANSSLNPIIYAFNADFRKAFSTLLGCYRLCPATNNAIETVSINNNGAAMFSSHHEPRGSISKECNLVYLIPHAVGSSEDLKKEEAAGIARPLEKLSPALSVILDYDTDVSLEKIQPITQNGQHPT
# CNR2: Cannabinoid receptor 2 (CNR2, Homo sapiens, UniProt P34972)
# Sequence of UniProt P34972 (whole entry, looked up): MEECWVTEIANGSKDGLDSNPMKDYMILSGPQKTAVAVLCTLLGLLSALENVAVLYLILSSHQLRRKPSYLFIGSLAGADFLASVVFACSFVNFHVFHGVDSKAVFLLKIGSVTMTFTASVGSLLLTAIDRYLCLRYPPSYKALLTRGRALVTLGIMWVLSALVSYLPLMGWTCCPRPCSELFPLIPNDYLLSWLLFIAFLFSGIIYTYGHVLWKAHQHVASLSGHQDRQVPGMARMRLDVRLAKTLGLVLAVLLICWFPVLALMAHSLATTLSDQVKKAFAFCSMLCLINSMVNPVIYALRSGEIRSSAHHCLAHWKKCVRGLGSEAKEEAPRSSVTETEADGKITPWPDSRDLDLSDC
# Oprm1: Mu-type opioid receptor (Oprm1, Rattus norvegicus, UniProt P33535)
# Sequence of UniProt P33535 (whole entry, looked up): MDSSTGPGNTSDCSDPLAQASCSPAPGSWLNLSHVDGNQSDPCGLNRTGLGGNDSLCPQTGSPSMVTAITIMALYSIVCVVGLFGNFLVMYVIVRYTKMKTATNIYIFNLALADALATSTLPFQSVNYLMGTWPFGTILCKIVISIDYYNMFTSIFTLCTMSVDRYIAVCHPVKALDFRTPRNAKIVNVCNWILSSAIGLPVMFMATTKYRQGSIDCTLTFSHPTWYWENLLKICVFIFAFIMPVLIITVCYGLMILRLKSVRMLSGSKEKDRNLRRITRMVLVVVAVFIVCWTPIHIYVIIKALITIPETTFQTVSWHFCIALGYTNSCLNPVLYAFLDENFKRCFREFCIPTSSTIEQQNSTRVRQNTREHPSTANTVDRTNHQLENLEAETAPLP
# Sequence of UniProt P18508 (whole entry, looked up): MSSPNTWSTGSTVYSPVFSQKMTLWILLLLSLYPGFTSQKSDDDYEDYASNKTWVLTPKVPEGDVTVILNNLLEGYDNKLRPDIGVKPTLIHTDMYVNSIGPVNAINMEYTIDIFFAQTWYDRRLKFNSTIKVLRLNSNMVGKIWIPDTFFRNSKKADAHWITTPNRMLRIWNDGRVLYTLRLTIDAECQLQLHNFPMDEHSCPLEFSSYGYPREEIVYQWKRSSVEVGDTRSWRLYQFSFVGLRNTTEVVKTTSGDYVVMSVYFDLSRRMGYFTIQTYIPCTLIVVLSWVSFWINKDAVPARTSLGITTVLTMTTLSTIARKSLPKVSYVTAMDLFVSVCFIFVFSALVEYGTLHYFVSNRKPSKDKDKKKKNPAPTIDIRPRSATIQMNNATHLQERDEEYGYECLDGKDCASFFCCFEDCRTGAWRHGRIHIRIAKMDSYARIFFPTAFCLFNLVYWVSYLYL
# Sequence of UniProt P41595 (whole entry, looked up): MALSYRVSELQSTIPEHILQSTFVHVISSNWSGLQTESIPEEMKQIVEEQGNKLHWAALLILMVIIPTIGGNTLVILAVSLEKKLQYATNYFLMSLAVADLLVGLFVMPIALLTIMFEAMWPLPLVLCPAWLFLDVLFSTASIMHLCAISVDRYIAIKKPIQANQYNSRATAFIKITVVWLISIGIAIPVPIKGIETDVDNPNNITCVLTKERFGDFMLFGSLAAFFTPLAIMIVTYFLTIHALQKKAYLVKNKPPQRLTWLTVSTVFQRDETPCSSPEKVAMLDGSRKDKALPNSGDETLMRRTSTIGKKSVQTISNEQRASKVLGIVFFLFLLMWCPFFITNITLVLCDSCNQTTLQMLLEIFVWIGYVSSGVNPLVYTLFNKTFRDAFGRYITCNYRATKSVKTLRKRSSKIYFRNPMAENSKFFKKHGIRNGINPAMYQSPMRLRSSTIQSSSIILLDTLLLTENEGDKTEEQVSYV
# Sequence of UniProt P35372 (whole entry, looked up): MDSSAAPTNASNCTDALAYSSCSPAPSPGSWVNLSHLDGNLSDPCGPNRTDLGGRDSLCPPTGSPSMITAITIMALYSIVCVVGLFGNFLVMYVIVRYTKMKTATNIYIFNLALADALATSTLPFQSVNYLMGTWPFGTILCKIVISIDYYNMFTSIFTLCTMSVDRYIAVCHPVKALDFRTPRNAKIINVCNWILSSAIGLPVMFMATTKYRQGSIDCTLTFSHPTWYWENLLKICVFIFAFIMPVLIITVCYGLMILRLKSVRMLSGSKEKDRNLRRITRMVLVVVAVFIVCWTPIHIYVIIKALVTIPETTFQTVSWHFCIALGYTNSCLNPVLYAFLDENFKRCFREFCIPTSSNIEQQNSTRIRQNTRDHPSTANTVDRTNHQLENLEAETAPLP
# Sequence of UniProt P23576 (whole entry, looked up): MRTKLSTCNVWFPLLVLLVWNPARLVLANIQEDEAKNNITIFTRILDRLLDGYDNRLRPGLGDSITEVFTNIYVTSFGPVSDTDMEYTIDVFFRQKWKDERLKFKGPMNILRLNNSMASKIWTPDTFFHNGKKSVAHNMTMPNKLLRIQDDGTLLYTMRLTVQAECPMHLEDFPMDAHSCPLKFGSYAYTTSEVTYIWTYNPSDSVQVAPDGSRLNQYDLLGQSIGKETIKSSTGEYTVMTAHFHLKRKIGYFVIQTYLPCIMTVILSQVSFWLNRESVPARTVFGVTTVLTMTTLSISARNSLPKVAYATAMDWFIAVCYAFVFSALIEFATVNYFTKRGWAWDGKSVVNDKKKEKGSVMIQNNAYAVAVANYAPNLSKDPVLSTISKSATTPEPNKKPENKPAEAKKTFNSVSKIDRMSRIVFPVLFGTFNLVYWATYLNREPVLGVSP
# Sequence of UniProt P19969 (whole entry, looked up): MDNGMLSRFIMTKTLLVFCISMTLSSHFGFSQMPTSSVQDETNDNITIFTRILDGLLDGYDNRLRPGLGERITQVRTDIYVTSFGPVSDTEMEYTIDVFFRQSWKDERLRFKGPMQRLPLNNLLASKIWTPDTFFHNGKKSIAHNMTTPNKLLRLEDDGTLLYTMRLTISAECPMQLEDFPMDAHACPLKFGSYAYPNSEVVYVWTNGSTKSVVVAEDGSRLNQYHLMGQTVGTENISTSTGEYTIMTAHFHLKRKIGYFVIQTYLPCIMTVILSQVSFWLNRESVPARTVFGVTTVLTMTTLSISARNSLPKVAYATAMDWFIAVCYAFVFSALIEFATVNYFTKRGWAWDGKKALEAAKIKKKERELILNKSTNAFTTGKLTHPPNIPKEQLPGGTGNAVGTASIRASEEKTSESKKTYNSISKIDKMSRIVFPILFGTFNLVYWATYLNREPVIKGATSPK
# Sequence of UniProt P25084 (whole entry, looked up): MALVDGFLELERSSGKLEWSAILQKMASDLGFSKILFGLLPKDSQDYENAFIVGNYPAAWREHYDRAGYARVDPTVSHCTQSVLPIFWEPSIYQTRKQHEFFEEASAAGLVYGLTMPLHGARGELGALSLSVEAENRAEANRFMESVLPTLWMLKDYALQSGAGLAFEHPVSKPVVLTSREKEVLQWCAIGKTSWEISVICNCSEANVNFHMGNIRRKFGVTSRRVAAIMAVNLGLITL
Compound,target,test,system,setting,scale,Emax [%]
CCCCCCCCCC(=O)CC(=O)N[C@H]1CCOC1=O,"Transcriptional activator protein LasR (lasR, Pseudomonas aeruginosa, UniProt P25084)","reporter gene, agonist",Escherichia coli lasI-lacZ reporter,,reference: OdDHL,98
C#CCN(C)C[C@@H]1C=C2c3cccc4[nH]cc(c34)C[C@H]2N(C)C1,DRD1,"cAMP, agonist",,,,61
CN(C(=O)c1ccc2c(c1)OCC2(C)Cc1ccccc1)C(C)(C)C (stereo not shown),CNR2,"GTPγS binding, agonist, radiometric",,,,91
C[C@@H](NC(=O)c1nn(Cc2ccc(F)cc2)c2ccccc12)c1cccc(C(N)=O)c1,CNR2,"calcium mobilization, agonist",CHO-K1 expressing Gαq16,,"reference: CP55,940 maximum",25 ± 2
CNC(=O)c1cc2c(cn1)[nH]c1ccccc12,"Gabrg2/Gabra5, with β3 subunit (Rattus norvegicus, UniProt P18508+P19969)","GABA-induced chloride current, two-electrode voltage clamp",Xenopus oocytes,together with: GABA at EC3,,84 ± 1
NC(=O)[C@@H]1CSCSC[C@@H](NC(=O)[C@@H](N)Cc2ccc(O)cc2)C(=O)N[C@@H](Cc2ccc3ccccc3c2)C(=O)N[C@@H](Cc2ccccc2)C(=O)N1,Oprm1,agonist,"C6 cells, membranes",,reference: 10 µM DAMGO,31 to 34
CN1Cc2ccccc2[C@@H]2c3cccc4[nH]cc(c34)C[C@H]21,DRD1,"cAMP, agonist",,,,85
NC(=O)c1cccc(C2(NC(=O)c3nn(Cc4ccc(F)cc4)c4ccccc34)CC2)c1,CNR2,"calcium mobilization, agonist",CHO-K1 expressing Gαq16,,"reference: CP55,940 maximum",44 ± 5
NC(=O)[C@@H]1CSSC[C@@H](NC(=O)[C@@H](N)Cc2ccc(O)cc2)C(=O)N[C@@H](Cc2ccc3ccccc3c2)C(=O)N[C@@H](Cc2ccccc2)C(=O)N1,Oprm1,agonist,"C6 cells, membranes",,reference: 10 µM DAMGO,31 to 34
"COc1ccc(Cl)c(Cl)c1C1CC1CN (single isomer, unassigned; (-))","5-hydroxytryptamine receptor 2B (HTR2B, Homo sapiens, UniProt P41595)","calcium signal, agonist, fluorescence",HEK293,,,62
CCC/C=C/CC1(C)COc2cc(C(=O)NC3CCCCC3)ccc21 (stereo not shown),CNR2,"GTPγS binding, agonist, radiometric",,,,105
NC(=O)c1cc(N2C3CCC2CN(CCCc2ccccc2)C3)ccc1F,"Mu-type opioid receptor (OPRM1, Homo sapiens, UniProt P35372)",agonist,,,,10.7
CC(C)(C)OC(=O)c1ncn2c1[C@@H]1CCCN1C(=O)c1c(Br)cccc1-2,"Gabrg2/Gabra2, with β3 subunit (Rattus norvegicus, UniProt P18508+P23576)","GABA-induced chloride current, two-electrode voltage clamp",Xenopus oocytes,together with: GABA at EC3,,129 ± 10
NC(=O)N1CCC[C@@H](NC(=O)c2nn(Cc3ccc(F)cc3)c3ccccc23)C1,CNR2,"calcium mobilization, agonist",CHO-K1 expressing Gαq16,,"reference: CP55,940 maximum",66 ± 5
CC1(Cc2ccncc2)COc2cc(C(=O)N3CCCCC3)ccc21 (stereo not shown),CNR2,"GTPγS binding, agonist, radiometric",,,,62.5
CC(C)(NC(=O)c1nn(CCCCC(F)(F)F)c2ccccc12)c1cccc(C(N)=O)c1,CNR2,"calcium mobilization, agonist",CHO-K1 expressing Gαq16,,"reference: CP55,940 maximum",40 ± 1
CC1(Cc2ccc3ccccc3c2)COc2cc(C(=O)N3CCCCC3)ccc21 (stereo not shown),CNR2,"GTPγS binding, agonist, radiometric",,,,112
NC(=O)c1ccc(CNC(=O)c2nn(Cc3ccc(F)cc3)c3ccccc23)cc1,CNR2,"calcium mobilization, agonist",CHO-K1 expressing Gαq16,,"reference: CP55,940 maximum",13 ± 1
C[C@@H](NC(=O)[C@@H](N)Cc1ccc(O)cc1)C(=O)NCC(=O)N(C)[C@@H](Cc1ccccc1)C(=O)NCCO,Oprm1,"GTPγS binding, agonist, radiometric",,cell membranes,,99.4

# Repeated from above:
Compound,target,test,system,setting,scale,Emax [%]
CC1(Cc2ccncc2)COc2cc(C(=O)N3CCCCC3)ccc21 (stereo not shown),CNR2,"GTPγS binding, agonist, radiometric",,,,62.5
